Published values pooled from the literature.
Lines come from different studies, so protocols differ.
Target: Albumin (ALB, Homo sapiens, UniProt P02768)

CC[C@@H](C)[C@@H]1NC(=O)[C@@H](Cc2ccccc2)NC(=O)[C@@H]2CCCN2C(=O)[C@H]([C@H](C)CC)NC(=O)[C@@H](Cc2ccccc2)NC(=O)[C@@H]2CCCN2C1=O
plasma protein binding (human serum albumin): 84.2%

COc1cccc2c1C(=O)c1c(O)c3c(c(O)c1C2=O)CC(O)(C(CO)=NNC(=O)CCCCC(=O)NNC(=O)CCCc1ccc(I)cc1)CC3OC1CC(N)C(O)C(C)O1 (stereo not drawn)
protein-bound fraction (gel filtration chromatography; 5% albumin in PBS; 60 min, pH 7.4, 37 °C, 10% DMF): 97%

O=C(/C=C/c1ccc(O)c(O)c1)NCCCCCCCC[P+](c1ccccc1)(c1ccccc1)c1ccccc1
unbound fraction (human serum albumin solution): 5.24%

O=C1CCC(N2Cc3c(NCc4ccc(CN5CCOCC5)cc4)cccc3C2=O)C(=O)N1 (stereo not drawn)
HSA binding (HPLC, immobilised HSA column; concentration not given): 86%

Cc1cc(C)c(-c2cc(C)c(OP(=O)([O-])OCCC[C@H](C(=O)[O-])N3CCN(CC(=O)[O-])CCN(C(C(=O)[O-])C(=O)[O-])CCN(CC(=O)[O-])CC3)cc2C)c(C)c1.[Gd+3]
ZFS modulation correlation time (variable temperature NMRD; HSA-bound complex): 18 ps

CCCNC(=O)C(c1ccc(CNc2cccc3c2CN(C2CCC(=O)NC2=O)C3=O)cc1)N1CCOCC1 (stereo not drawn)
HSA binding (HPLC, immobilised HSA column; concentration not given): 81%

Cc1cc(C)c(-c2cc(C)c(OP(=O)([O-])OCCC[C@H](C(=O)[O-])N3CCN(CC(=O)[O-])CCN(CC(=O)NCC(=O)[O-])CCN(CC(=O)[O-])CC3)cc2C)c(C)c1.[Gd+3]
water residency time (albumin binding, variable temperature NMRD fit; albumin-bound complex; 0.1 mM, pH 7.4, 37 °C, fit 5-35 °C data, together with: HSA 0.66 mM): 441 ns

O=C1CCC(N2Cc3c(NCc4ccccc4)cccc3C2=O)C(=O)N1 (stereo not drawn)
HSA binding (HPLC, immobilised HSA column; concentration not given): 89%

CN1C(=O)[C@@H](Cc2ccc(O)cc2)NC(=O)CNC(=O)[C@H](Cc2ccc3ccccc3c2)NC(=O)[C@H](CCCNC(=N)N)NC(=O)[C@H]1CCCNC(=O)c1ccc(CNC(=O)CN2CCN(CC(=O)O)CCN(CC(=O)O)CCN(CC(=O)O)CC2)cc1 [gallium-68 labelled]
plasma protein binding (HPLC on HSA column): 86%

For quick reference, copied from above:
O=C(/C=C/c1ccc(O)c(O)c1)NCCCCCCCC[P+](c1ccccc1)(c1ccccc1)c1ccccc1
unbound fraction (human serum albumin solution): 5.24%
